Published values from different studies.
A part holds a random share of what one study measured.
Sequence of UniProt Q99558 (whole entry, looked up): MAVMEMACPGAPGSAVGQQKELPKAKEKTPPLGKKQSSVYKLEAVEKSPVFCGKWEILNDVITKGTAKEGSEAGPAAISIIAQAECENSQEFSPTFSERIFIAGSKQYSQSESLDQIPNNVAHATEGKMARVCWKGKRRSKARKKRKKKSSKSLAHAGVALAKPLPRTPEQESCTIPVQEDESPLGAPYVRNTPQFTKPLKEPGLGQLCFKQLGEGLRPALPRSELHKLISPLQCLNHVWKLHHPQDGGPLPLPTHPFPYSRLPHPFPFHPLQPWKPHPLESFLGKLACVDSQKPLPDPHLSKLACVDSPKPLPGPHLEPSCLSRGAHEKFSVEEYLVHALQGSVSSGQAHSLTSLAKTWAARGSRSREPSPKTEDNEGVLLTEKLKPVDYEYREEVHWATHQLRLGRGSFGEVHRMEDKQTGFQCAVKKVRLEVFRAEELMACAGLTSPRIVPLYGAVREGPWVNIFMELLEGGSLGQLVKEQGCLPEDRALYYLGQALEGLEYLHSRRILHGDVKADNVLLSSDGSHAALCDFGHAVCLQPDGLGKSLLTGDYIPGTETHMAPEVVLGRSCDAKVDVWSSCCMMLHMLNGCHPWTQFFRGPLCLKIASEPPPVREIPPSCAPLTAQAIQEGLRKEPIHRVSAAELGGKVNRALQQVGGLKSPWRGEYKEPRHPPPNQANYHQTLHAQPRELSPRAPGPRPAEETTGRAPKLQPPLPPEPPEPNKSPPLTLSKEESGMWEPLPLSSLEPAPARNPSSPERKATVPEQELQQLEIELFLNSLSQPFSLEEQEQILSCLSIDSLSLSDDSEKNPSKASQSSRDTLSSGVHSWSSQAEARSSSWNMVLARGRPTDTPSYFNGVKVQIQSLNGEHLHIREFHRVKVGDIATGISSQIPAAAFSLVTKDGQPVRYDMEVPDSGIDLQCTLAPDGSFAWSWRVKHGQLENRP
Sequence of UniProt P52333 (whole entry, looked up): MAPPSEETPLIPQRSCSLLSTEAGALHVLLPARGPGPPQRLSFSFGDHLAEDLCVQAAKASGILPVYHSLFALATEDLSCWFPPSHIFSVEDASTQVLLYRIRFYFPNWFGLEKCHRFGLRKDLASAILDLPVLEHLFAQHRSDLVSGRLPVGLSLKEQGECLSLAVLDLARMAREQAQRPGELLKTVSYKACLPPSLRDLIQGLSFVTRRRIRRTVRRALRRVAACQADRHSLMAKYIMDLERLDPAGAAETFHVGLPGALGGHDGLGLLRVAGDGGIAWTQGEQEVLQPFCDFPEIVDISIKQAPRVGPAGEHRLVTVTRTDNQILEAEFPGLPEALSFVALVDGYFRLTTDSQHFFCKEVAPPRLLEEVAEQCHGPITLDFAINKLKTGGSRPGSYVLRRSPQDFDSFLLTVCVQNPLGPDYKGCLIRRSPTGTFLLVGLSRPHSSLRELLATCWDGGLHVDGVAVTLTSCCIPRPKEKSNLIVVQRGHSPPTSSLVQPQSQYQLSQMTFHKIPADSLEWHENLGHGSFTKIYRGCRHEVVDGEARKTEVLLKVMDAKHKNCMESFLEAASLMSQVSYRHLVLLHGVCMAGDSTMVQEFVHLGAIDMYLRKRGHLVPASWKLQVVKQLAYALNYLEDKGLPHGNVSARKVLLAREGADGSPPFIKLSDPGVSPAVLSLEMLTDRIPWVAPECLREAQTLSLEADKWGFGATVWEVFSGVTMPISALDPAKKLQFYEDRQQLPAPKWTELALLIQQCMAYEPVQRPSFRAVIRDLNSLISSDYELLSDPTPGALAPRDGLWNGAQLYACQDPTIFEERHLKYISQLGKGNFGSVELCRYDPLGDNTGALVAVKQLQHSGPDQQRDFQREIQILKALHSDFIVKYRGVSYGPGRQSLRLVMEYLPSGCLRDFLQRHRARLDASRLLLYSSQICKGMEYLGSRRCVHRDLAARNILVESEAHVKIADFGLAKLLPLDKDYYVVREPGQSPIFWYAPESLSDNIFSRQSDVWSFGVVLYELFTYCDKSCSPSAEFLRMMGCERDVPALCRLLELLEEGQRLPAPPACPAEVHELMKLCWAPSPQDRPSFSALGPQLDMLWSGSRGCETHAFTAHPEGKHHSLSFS
Sequence of UniProt Q8WTQ7 (whole entry, looked up): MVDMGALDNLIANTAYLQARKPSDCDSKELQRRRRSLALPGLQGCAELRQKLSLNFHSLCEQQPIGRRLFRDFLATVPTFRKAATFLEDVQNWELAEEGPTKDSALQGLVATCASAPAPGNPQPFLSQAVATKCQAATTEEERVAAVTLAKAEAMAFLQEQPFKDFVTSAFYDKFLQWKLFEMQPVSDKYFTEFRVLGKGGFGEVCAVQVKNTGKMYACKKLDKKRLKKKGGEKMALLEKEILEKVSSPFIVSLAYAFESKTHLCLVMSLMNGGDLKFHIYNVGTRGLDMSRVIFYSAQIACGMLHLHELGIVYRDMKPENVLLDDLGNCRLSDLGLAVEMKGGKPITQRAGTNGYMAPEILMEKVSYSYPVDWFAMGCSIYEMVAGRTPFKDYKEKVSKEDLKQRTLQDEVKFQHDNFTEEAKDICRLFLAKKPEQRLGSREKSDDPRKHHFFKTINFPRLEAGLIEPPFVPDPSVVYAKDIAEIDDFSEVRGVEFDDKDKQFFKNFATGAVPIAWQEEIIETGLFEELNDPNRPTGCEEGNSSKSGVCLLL
Sequence of UniProt Q13470 (whole entry, looked up): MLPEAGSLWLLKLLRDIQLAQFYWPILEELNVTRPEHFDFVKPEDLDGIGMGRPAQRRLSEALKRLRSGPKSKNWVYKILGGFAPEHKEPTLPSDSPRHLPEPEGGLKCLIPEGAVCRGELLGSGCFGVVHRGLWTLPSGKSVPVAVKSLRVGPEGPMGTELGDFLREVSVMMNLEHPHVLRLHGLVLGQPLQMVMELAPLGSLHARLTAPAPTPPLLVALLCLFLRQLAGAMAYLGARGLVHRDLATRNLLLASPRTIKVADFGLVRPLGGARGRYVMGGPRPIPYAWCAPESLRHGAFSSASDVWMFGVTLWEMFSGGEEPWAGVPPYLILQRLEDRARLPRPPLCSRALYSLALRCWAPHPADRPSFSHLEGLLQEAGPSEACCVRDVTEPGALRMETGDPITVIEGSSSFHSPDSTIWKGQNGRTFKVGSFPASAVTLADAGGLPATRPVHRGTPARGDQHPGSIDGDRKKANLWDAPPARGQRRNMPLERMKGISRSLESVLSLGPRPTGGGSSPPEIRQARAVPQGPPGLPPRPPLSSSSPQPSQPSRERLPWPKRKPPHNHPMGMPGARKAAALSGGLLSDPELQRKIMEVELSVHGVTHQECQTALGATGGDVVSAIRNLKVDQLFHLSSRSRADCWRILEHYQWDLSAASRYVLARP
Sequence of UniProt Q8NG66 (whole entry, looked up): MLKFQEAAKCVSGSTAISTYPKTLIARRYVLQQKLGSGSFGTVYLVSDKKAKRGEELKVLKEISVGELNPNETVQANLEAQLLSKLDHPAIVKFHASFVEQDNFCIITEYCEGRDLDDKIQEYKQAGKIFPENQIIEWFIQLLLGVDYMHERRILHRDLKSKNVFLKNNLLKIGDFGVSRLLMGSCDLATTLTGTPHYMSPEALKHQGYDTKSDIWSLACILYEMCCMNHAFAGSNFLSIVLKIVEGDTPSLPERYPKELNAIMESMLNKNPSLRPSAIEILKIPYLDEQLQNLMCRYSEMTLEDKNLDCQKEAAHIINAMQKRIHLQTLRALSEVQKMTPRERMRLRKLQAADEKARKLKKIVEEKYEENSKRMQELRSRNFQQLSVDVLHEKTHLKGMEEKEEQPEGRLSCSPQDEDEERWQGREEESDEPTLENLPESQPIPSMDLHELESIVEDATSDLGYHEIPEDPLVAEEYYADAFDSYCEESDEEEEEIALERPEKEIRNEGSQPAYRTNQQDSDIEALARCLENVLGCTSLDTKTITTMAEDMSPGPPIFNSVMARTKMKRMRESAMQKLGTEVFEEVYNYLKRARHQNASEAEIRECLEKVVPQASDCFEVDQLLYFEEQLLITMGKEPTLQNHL
Sequence of UniProt P49841 (whole entry, looked up): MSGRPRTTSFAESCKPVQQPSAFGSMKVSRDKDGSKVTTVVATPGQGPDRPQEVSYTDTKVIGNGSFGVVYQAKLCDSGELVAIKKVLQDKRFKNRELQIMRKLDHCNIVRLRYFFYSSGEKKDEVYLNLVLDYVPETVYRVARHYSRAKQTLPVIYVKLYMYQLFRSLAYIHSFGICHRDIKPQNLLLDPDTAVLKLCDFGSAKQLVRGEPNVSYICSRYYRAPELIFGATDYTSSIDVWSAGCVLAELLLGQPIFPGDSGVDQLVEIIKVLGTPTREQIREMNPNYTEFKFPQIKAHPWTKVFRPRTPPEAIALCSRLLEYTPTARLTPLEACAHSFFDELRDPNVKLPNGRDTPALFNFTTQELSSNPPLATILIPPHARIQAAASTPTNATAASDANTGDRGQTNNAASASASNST
Sequence of UniProt P06239 (whole entry, looked up): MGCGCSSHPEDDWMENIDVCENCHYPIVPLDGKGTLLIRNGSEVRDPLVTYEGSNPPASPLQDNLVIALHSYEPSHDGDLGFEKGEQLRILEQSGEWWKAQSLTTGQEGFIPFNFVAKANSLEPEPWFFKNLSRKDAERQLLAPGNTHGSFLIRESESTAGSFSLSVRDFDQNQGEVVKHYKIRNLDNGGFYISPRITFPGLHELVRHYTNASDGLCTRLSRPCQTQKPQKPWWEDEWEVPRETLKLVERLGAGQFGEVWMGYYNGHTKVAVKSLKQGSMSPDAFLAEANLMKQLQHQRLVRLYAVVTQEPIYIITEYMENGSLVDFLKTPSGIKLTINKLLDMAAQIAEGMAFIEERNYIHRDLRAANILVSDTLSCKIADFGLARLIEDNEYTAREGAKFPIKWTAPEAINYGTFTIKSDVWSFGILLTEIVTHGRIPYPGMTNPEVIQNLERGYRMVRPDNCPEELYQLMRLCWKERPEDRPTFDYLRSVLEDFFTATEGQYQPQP

Set 1
Compound: N#C/C(=C\c1ccc(O)c(O)c1)C(=O)NCc1ccccc1
Read-out: enzyme activity
Mode: inhibitor
Tested at: 0.5 µM
Relative to: control
target | remaining activity [%]
EPHA3 (Homo sapiens, UniProt P29320) | 97.2
NEK6 (Homo sapiens, UniProt Q9HC98) | 104
JAK3 (Homo sapiens, UniProt P52333) | 97.2
ACVR1B (Homo sapiens, UniProt P36896) | 98
RPS6KA2 (Homo sapiens, UniProt Q15349) | 94.2
MERTK (Homo sapiens, UniProt Q12866) | 89
GSK3B (Homo sapiens, UniProt P49841) | 106
ARAF (Homo sapiens, UniProt P10398) | 95.2
GRK7 (Homo sapiens, UniProt Q8WTQ7) | 103
ULK2 (Homo sapiens, UniProt Q8IYT8) | 106
MAP3K14 (Homo sapiens, UniProt Q99558) | 109
LCK (Homo sapiens, UniProt P06239) | 95.7
CSNK1G2 (Homo sapiens, UniProt P78368) | 106
FGFR3 (Homo sapiens, UniProt P22607) | 98.2

Set 2
Species: human
Matrix: microsomes or S9
Tested at: 2 µM
Time: 0.5 h
SMILES | remaining compound [%]
COc1cccc2c1OCC(C(=O)N1CCC3(CCCO3)CC1)C2 (stereo not shown) | 63.9
COc1ccc(OC)c(NC(=O)c2cc(S(=O)(=O)N3CCC(C)CC3)c(C)n2C)c1 | 7.06
COC(=O)c1ccc(-c2nc3c(N)nc(S(C)(=O)=O)nc3n2C)cc1 | 6.82
Cc1cc(OCC(=O)N(C(C)C)C(C)C)ccc1Cl | 0.283
CN1C(=O)C(c2c(-c3ccc(Br)cc3)[nH]c3[nH]c(=O)[nH]c(=O)c23)c2ccccc21 (stereo not shown) | 46
Cc1nc(C(C)N(C)CCCS(=O)(=O)N(C)C)c(C)s1 (stereo not shown) | 22.4
CC(C)(C)c1n[nH]c(C2CN(C(=O)C3CCOC3)CCO2)n1 (stereo not shown) | 42
CCOC(=O)N1CCN(c2ncc3c(n2)CC(c2cc(OC)c(OC)c(OC)c2)CC3=O)CC1 (stereo not shown) | 94.6
CC(C)Oc1ccc(CN2C(=O)c3cc4ccsc4n3CC2(C)C(=O)NCc2ccc(F)cc2)cc1 (stereo not shown) | 86.9
CN(C)c1cncc(-c2cccc(-n3cccn3)c2)n1 | 1.65
CSC1=N/C(=C\c2ccc(C(=O)O)cc2)C(=O)S1 | > 99
C[C@H]1CN(c2c(F)cc3c(=O)c(C(=O)O)cn4c3c2OC[C@@H]4C)C[C@H]1N | 93.5

Set 3
Structure (SMILES): CO[C@H]1CC[C@H](CNc2ccc(S(=O)(=O)NC(=O)c3ccc(N4CCN(CC5=C(c6ccc(Cl)cc6)CC(C)(C)CC5)CC4)cc3Oc3cnc4[nH]ccc4c3)cc2[N+](=O)[O-])CC1
Read-out: cell-free assay
Technique: competition with immobilised ligand
Tested at: 1 µM
target | remaining binding [%]
TNK1 (Homo sapiens, UniProt Q13470) | 81
MAP4K5 (Homo sapiens, UniProt Q9Y4K4) | 93
BMX (Homo sapiens, UniProt P51813) | 95
FGFR2 (Homo sapiens, UniProt P21802) | 100
PKN1 (Homo sapiens, UniProt Q16512) | 83
KIT (Homo sapiens, UniProt P10721, V559D/V654A) | 93
Ribosomal protein S6 kinase alpha-3, N-terminal kinase domain (RPS6KA3, Homo sapiens, UniProt P51812) | 71
CIT (Homo sapiens, UniProt O14578) | 74
MET (Homo sapiens, UniProt P08581) | 68
NEK11 (Homo sapiens, UniProt Q8NG66) | 100
TAOK1 (Homo sapiens, UniProt Q7L7X3) | 88
EGFR (Homo sapiens, UniProt P00533, L861Q) | 70
EGFR (Homo sapiens, UniProt P00533, del752-759) | 61
MAP3K14 (Homo sapiens, UniProt Q99558) | 100
RIPK1 (Homo sapiens, UniProt Q13546) | 77

Set 4
Cell line: HH
Tested at: 2 µM
Time: 48 h
Relative to: untreated
Structure (SMILES) | viability
CC(C)N(CCC(=O)c1ccc2ccccc2c1)Cc1ccccc1 | 82.3%
CN1CCN(c2cccc(Nc3nc4c(-c5ccc(S(C)(=O)=O)cc5)cccn4n3)c2)CC1 | 82.4%
CCCCCCCCc1ccc(CCC(N)(CO)CO)cc1 | 90.3%
N#Cc1c(Oc2ccc(F)c(NC(=O)Cc3cccc(C(F)(F)F)c3)c2)ccc2nc(NC(=O)C3CC3)sc12 | 95%
C[C@@H](Oc1cc(-c2cnn(C3CCNCC3)c2)cnc1N)c1c(Cl)ccc(F)c1Cl | 58.6%
Cc1cc(F)c(Nc2ncnc3cc(OCc4ccccc4)ccc23)cc1O | 78.6%
COc1cc(-c2cc(-c3ccc(N4CCNCC4)cc3)cnc2C)cc(OC)c1OC | 99.6%
CC[C@@H]1C(=O)N(C)c2cnc(Nc3ccc(C(=O)N[C@H]4CC[C@H](N5CCN(CC6CC6)CC5)CC4)cc3OC)nc2N1C(C)C | 27.6%
